Measurements of several laboratories.
Numbered parts are unrelated; each lists some results of a single study.

Series 1 — method: RNA Bind-n-Seq; molecule type: RNA; sample: in vitro; tested at: not given; reference: input RNA pool; direction: higher = stronger binding; measurement: bound/input enrichment
Target: RING finger protein unkempt homolog, zinc fingers 1-6, GST-SBP tag (UNK, Homo sapiens, UniProt Q9C0B0, residues 30-357)
Chain of UniProt Q9C0B0 (30-357, looked up): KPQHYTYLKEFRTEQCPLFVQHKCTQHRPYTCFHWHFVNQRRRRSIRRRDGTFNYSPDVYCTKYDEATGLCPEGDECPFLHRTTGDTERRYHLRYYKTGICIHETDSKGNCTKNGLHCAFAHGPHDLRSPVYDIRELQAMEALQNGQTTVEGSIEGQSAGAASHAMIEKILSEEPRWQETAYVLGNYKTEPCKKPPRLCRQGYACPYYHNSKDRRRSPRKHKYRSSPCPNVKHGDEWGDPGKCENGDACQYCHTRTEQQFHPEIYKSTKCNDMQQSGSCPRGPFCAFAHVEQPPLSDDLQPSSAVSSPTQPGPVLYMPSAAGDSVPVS
Notes: RNA with constant flanks, human-mouse chimeric sites, ends assumed
GGGAGUUCUACAGUCCGACGAUCGCUCCUCCCCGCUCUGCAGCCUGGGGACACUGGGCUGGGACCAGAAUCCAGCUUUCUUUUAAUAGUGUAUAUUUUUUUGUAUCCCGUGACAUUUCAUUUUUUUUAAAUAGUGUAUUUUUUCAACAGAGGAUUGAGCAUCA: 65.1 ratio
GGGAGUUCUACAGUCCGACGAUCAGAAUCUUGGGACUGUUUUACUUAAUUGGUCAUUGAUAUCUCAACAAACAUGGAGAUAAGAUUAGAAGUUUUGACAUCAACAGGUAUUAAGCAGAAAAAACCAUGGCCACGUGUCUCCUGCAACAGAGGAUUGAGCAUCA: 0.656 ratio
GGGAGUUCUACAGUCCGACGAUCCUUUUUAAGAAGAUAUGUGAUGGGAUCUUUUAUACCCCUCAAUAUUUAAACCCUUCAGUGAUUAGCCUUUUGAAACAUAUGCUGCAGGUGGAUCCCAUGAAGAGGGCCGCAAUAAAAGAUCAACAGAGGAUUGAGCAUCA: 0.713 ratio
GGGAGUUCUACAGUCCGACGAUCAGAGAUAAGACAUCCAGGAACAUGCGAGGCUCCCGGAUGAAUGGGUUGCCUAGCCCCACUCAUAGUGCCCACUGUAGCUUCUACCGAACCAGAACCUUGCAGGCACUAAGUAAUGAGAAGCAACAGAGGAUUGAGCAUCA: 0.157 ratio

Series 2 — method: protein-binding microarray; molecule type: double-stranded DNA, one strand shown; sample: in vitro; tested at: 2540 nM top; notes: 60-bp whole probe; with: salmon DNA 0.4 mg/ml; reference: random background probes; direction: higher = stronger binding; measurement: fitted relative affinity; shared flanks, not repeated: GCCTAGCAC … GTCTTGATTCGCTTGACGCTGCTG
Target: Interferon regulatory factor 3, full length, phosphomimetic (IRF3, Homo sapiens, UniProt Q14653, residues 1-427, S386D/S396D/S398D/S402D/T404D/S405D)
Residues (chain): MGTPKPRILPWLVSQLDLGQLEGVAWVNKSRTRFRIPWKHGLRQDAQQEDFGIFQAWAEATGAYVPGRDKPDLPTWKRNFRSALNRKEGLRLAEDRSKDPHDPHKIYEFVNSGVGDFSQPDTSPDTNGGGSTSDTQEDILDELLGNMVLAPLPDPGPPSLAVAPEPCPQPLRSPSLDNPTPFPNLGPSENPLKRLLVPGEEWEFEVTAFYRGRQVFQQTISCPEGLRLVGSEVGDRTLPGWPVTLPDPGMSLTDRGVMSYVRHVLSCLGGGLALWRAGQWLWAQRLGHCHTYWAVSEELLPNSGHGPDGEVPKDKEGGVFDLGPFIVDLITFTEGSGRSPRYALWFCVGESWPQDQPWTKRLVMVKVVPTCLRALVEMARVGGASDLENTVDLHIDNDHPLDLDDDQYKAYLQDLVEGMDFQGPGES
GACGATTTCAGTTTCGGGACGTGCTAG: 5 z-score
GACGATATCAGTTTCGCGACGTGCTAG: 2.48 z-score
GACGATCACAGTATCGAGACGTGCTAG: 0.723 z-score
GACGGACTGGTGTTTCGGGACGTGCTA: 0.464 z-score
TTAGGTTTCGGTATCGGATAGTGCTAG: 9.18 z-score
CACGGTTTCCTACTGCTGACGTGCTAG: 4.67 z-score
GACGATCTCAGATTCGAGACGTGCTAG: 1.07 z-score
TACGATATCGGGTTTCGAGACGTGCTA: 0.951 z-score

Series 3 — method: protein binding microarray; molecule type: double-stranded DNA, one strand shown; sample: in vitro; tested at: not given; reference: not given; direction: higher = stronger binding; measurement: E-score
Target: Histone acetyltransferase KAT6A, both winged helices, GST fusion (KAT6A, Homo sapiens, UniProt Q92794, residues 1-181)
Notes: 8-mer, flanks averaged, mean of 2 arrays, mostly near background
Residues (chain): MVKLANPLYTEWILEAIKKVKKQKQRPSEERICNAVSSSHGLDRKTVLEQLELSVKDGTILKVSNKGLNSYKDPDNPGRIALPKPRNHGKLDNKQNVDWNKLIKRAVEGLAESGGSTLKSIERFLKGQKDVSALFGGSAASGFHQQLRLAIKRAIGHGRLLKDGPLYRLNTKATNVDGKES
AATCCTTG: -0.0324
GGGGAGGA: -0.127
CAGCATGG: -0.155
ACCTTAGC: -0.155
CAAAATTC: -0.00834

Further values, each from its own experiment
PhoQ, residues 284 288 289 292 302 303 ASTSDA — fold induction (PhoP, residues 12 14 15 18 19 LYHSL (Escherichia coli, UniProt P23836); Sort-seq, measured: YFP reporter; E. coli; PhoQ-PhoP variant library, with: 10 µM Mg2+; reference: high Mg2+ state, higher = stronger signaling): 25.8

A few entries again (series 2):
GACGATTTCAGTTTCGGGACGTGCTAG: 5 z-score
GACGGACTGGTGTTTCGGGACGTGCTA: 0.464 z-score
TACGATATCGGGTTTCGAGACGTGCTA: 0.951 z-score
